Measured values of several laboratories.
Lines come from different studies, so protocols differ.
PIK3CA H1047Y: Phosphatidylinositol 4,5-bisphosphate 3-kinase catalytic subunit alpha isoform (PIK3CA, Homo sapiens, UniProt P42336, H1047Y)
PIK3CA: Phosphatidylinositol 4,5-bisphosphate 3-kinase catalytic subunit alpha isoform (PIK3CA, Homo sapiens, UniProt P42336)
PIK3CA H1047L: Phosphatidylinositol 4,5-bisphosphate 3-kinase catalytic subunit alpha isoform (PIK3CA, Homo sapiens, UniProt P42336, H1047L)

CNC1C[S+]2CC[S+]3CC[S+](C1)[Ru-4]321([N]=C=S)[n]2c3ccc(OC)cc3c3c4c(c5cc(F)c[n+]1c5c32)C(=O)NC4=O (centres unmarked)
remaining binding (PIK3CA H1047Y; KinomeScan; 0.1 µM; reference: untreated): 100%

CC(=O)c1cnc(N)nc1N1CC[C@H]1c1nn2ccc(Cl)c2c(=O)n1-c1ccccc1
remaining binding (PIK3CA; cell-free assay, competition with immobilised ligand; 10 µM): 71%

CCN1CCN(Cc2ccc(C(=O)Nc3ccc(C)c(NCc4cnc5[nH]ccc5c4OC)c3)cc2C(F)(F)F)CC1
remaining binding (Phosphatidylinositol 4,5-bisphosphate 3-kinase catalytic subunit alpha isoform (PIK3CA, Homo sapiens, UniProt P42336, E542K); binding, competition with immobilised ligand; 1 µM): 97%

Cc1cnc2nc1Nc1cccc(c1)COC/C=C/COCc1cc(ccc1OCCN1CCOCC1)N2
remaining binding (Phosphatidylinositol 4,5-bisphosphate 3-kinase catalytic subunit alpha isoform (PIK3CA, Homo sapiens, UniProt P42336, E545A); binding; 0.1 µM): 61%

CC(C)=CC1OC(C)(C)C2C=C3C(=O)C(Cl)=CC(O)C3C3C(O)C4OC4C(=O)C132 (centres unmarked)
remaining binding (PIK3CA H1047Y; cell-free assay, competition with immobilised ligand; 10 µM): 70%

C=CC(=O)N1CCCC(n2c(=O)c3ncccc3n(Cc3ccc(Oc4ccccc4)cc3)c2=O)C1 (centres unmarked)
remaining binding (Phosphatidylinositol 4,5-bisphosphate 3-kinase catalytic subunit alpha isoform (PIK3CA, Homo sapiens, UniProt P42336, I800L); cell-free assay, competition with immobilised ligand; 1 µM): 51%

COc1c(Cl)cccc1Nc1c(-c2ccncc2C#C[C@@]2(C)CCCN2C(=O)/C=C/CN(C)C)[nH]c2c1C(=O)NCC2
remaining binding (Phosphatidylinositol 4,5-bisphosphate 3-kinase catalytic subunit alpha isoform (PIK3CA, Homo sapiens, UniProt P42336, M1043I); binding, competition with immobilised ligand; 3 µM): 66%

CNC(=O)C1CCN(c2cc(C)c(F)cc2NC(=O)c2ccc(-c3cc(O)ccc3C)c(C)c2)CC1
remaining binding (PIK3CA; binding, competition with immobilised ligand; 1 µM): 93%

Cc1ccc(-c2c(/C=C(\C#N)C(=O)NC(C)C)n(CCCO)c3ncnc(N)c23)cc1
remaining binding (PIK3CA H1047L; cell-free assay, competition with immobilised ligand; 1 µM): 93%

C=CC(=O)N1CCc2ccc(-n3c(=O)ccc4cnc5ccc(-c6cnn(C)c6)cc5c43)cc21
remaining binding (PIK3CA H1047L; KINOMEscan; 1 µM; reference: DMSO control): 83%

Nc1ncc2c(n1)-c1c([nH]c3ccc(C4=CCOCC4)cc13)CCC2
remaining binding (Phosphatidylinositol 4,5-bisphosphate 3-kinase catalytic subunit alpha isoform (PIK3CA, Homo sapiens, UniProt P42336, Q546K); binding, competition with immobilised ligand; 1 µM): 100%
